Measured values from different studies.
Protocols differ between the studies behind these lines. ± gives the spread as reported.
U2AF2: U2AF2 148-342 (Homo sapiens, UniProt P26368)
UniProt P26368, sequence (whole entry, looked up): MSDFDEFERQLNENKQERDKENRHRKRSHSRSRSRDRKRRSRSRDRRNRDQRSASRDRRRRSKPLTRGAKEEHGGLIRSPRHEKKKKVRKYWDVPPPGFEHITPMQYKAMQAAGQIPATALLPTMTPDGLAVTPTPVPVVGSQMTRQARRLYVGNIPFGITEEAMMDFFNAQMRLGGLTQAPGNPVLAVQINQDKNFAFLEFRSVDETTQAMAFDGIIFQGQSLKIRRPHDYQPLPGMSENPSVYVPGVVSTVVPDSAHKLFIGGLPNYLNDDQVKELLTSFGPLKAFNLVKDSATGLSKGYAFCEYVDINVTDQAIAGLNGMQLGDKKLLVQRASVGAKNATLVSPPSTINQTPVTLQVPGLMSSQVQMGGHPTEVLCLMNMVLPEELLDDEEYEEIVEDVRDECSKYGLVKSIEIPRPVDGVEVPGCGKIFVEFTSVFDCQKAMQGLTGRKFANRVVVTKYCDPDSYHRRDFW

Molecule	tested on	assay	test system	setting	scale	endpoint	value
Neuropeptide Y		RP-HPLC	HALO RP-amide column	25 µM, acetic acid/acetonitrile, 25 min gradient		retention time	9.97 min
insulin		LC-MS/MS	pooled human serum, high level	24 h, 4 °C, stability before sample preparation	relative to: untreated control	bias	-11.9%
insulin icodec			human mild hepatic impairment (Child-Pugh A), serum	subcutaneous, 1.5 U/kg single dose	relative to: mild impairment over normal function	AUC(0-inf) ratio	1.13
durvalumab			human, plasma	intravenous, 1500 mg, cycle 4 day 1, with: adavosertib 300 mg once daily		Cmax	596 µg/mL
insulin degludec			human	subcutaneous, 0.4 IU/kg, 3 FC level, fat content group, single dose, reference formulation		Cmax	0.0154 ± 0.0024 µg/mL
GGUUUAGGU (ssRNA)	U2AF2	sequencing of bound RNA	RNA	motif only		Kd	7.68 µM
EHWSYGLRPG	HUVEC	ICP-OES, item: rhenium	peptide	concentration not given, 24 h, 37 °C		cellular uptake	0.054 ppm
adrenomedullin		RP-HPLC	HALO Peptide ES-C18 column	25 µM, acetic acid/methanol, 10 min gradient		retention time	7.59 min
GCUUUAUUU (ssRNA)	U2AF2	sequencing of bound RNA	RNA	motif only		Kd	5.88 µM
MLHGVAWQ	HUVEC	ICP-OES, item: rhenium	peptide	concentration not given, 24 h, 37 °C		cellular uptake	0.049 ppm
